Published values collected from several papers.
Each numbered part is a random draw from the data of one study; scales do not carry over between parts. Values joined by “and” are separate records of one study, mostly repeats; a detail may differ.
UniProt P21860, sequence (whole entry, looked up): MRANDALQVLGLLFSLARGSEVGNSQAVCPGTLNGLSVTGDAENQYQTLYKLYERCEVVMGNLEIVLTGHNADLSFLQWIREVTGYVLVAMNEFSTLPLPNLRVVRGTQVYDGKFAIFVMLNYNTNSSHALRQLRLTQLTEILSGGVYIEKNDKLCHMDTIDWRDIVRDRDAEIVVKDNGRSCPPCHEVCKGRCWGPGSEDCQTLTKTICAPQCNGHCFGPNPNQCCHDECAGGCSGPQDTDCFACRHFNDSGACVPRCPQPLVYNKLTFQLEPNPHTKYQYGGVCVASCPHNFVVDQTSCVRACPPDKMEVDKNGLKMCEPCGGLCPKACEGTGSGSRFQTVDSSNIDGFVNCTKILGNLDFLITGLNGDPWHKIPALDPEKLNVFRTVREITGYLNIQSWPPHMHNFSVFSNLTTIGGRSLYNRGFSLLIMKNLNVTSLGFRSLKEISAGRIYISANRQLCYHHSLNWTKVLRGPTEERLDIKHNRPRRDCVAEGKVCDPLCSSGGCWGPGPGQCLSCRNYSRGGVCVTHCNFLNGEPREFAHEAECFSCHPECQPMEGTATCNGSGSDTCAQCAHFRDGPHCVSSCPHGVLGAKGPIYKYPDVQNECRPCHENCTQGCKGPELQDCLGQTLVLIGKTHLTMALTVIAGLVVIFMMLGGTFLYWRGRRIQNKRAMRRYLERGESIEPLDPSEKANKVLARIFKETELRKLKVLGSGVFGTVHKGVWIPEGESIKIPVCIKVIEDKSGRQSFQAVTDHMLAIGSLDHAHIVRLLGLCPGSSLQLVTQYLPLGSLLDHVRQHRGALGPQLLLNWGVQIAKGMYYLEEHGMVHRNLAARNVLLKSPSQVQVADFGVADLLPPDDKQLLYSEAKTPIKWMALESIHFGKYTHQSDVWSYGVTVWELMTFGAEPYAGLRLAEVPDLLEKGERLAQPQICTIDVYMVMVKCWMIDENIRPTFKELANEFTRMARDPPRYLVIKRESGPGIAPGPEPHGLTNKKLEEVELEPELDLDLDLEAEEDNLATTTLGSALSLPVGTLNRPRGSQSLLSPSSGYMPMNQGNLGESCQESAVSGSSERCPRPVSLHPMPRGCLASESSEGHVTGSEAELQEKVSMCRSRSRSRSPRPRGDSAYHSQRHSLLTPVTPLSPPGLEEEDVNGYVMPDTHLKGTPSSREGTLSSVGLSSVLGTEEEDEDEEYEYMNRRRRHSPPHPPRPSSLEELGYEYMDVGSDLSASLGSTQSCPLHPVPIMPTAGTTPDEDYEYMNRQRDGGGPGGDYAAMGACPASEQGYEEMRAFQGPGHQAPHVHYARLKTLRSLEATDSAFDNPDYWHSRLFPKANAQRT
UniProt P35626, sequence (whole entry, looked up): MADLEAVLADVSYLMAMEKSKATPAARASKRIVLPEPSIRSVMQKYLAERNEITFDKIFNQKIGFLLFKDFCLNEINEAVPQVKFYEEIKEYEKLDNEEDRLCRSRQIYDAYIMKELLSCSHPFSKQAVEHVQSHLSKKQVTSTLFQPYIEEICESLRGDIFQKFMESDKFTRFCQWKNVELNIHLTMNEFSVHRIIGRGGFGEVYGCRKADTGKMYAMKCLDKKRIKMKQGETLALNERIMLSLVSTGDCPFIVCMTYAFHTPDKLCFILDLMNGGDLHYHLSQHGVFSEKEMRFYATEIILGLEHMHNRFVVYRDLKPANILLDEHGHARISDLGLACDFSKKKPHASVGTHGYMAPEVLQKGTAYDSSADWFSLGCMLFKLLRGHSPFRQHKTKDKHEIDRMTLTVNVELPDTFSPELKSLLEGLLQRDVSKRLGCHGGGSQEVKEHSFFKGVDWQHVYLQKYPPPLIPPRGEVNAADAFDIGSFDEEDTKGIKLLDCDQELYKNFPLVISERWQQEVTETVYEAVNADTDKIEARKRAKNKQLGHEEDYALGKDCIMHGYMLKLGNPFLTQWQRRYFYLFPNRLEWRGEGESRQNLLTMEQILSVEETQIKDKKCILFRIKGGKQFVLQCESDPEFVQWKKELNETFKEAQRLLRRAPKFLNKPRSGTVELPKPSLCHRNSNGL
UniProt Q9H422, sequence (whole entry, looked up): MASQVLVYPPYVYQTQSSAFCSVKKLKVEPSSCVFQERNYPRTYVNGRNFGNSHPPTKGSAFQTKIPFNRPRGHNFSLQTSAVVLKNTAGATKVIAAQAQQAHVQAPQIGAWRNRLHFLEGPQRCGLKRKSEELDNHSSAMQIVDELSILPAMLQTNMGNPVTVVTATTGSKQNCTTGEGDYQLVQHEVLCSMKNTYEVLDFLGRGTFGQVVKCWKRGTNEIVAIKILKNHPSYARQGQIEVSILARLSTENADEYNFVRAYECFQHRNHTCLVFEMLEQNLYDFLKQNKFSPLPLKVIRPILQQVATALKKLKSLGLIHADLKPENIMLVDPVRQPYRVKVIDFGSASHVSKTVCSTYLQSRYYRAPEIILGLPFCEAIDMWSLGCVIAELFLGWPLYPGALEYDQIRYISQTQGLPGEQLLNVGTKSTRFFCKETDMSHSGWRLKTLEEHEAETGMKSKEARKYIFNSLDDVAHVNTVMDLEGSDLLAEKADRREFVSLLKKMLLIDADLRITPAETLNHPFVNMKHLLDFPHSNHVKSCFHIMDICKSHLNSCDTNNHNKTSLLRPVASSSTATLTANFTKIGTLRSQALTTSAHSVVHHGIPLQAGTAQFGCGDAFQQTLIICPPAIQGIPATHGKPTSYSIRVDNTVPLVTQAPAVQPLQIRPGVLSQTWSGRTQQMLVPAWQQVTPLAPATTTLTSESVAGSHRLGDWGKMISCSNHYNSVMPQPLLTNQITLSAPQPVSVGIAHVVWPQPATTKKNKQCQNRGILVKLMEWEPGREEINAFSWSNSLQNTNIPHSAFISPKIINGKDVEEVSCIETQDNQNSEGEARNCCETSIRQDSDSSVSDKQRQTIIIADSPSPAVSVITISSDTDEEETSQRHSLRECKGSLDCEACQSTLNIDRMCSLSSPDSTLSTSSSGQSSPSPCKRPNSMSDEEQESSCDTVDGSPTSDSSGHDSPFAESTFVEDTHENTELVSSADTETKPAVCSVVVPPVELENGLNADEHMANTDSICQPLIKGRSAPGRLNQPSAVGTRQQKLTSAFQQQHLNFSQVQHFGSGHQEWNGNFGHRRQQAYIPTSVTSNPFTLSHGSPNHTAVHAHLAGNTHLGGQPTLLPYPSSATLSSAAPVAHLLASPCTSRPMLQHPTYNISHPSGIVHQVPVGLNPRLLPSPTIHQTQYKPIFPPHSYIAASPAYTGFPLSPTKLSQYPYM
UniProt O75716, sequence (whole entry, looked up): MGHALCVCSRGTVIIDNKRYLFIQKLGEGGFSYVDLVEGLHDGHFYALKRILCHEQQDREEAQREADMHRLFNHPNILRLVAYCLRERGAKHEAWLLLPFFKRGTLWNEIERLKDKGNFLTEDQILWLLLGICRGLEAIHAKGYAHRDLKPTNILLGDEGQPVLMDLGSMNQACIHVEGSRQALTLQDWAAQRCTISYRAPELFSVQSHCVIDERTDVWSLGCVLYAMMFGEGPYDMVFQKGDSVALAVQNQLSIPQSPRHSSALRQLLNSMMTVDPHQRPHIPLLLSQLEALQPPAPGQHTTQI
UniProt O14965, sequence (whole entry, looked up): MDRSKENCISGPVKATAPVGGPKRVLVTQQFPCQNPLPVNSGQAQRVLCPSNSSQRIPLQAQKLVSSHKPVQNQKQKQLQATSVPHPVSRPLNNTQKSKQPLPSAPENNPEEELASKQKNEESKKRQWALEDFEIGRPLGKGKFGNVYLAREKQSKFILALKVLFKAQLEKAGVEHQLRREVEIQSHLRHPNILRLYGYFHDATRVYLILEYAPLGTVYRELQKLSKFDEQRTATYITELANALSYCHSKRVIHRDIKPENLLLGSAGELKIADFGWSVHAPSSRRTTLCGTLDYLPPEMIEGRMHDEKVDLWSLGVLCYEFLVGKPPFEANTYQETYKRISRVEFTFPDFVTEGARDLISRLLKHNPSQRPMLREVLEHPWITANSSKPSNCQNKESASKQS
UniProt P54646, sequence (whole entry, looked up): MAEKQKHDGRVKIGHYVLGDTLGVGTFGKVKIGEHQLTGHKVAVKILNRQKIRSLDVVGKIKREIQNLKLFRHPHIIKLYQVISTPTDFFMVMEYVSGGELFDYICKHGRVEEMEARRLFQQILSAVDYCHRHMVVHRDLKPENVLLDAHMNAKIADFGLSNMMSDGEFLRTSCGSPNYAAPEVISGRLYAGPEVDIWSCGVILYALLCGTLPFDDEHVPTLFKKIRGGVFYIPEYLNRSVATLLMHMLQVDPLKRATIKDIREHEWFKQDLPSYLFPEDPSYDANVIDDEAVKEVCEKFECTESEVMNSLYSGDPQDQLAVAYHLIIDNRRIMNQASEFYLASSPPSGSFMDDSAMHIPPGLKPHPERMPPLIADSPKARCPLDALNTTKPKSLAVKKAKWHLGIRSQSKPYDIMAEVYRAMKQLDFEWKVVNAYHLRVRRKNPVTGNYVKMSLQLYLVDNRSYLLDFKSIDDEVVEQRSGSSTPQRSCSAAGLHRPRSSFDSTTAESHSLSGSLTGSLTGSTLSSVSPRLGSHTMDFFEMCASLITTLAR
UniProt O14733, sequence (whole entry, looked up): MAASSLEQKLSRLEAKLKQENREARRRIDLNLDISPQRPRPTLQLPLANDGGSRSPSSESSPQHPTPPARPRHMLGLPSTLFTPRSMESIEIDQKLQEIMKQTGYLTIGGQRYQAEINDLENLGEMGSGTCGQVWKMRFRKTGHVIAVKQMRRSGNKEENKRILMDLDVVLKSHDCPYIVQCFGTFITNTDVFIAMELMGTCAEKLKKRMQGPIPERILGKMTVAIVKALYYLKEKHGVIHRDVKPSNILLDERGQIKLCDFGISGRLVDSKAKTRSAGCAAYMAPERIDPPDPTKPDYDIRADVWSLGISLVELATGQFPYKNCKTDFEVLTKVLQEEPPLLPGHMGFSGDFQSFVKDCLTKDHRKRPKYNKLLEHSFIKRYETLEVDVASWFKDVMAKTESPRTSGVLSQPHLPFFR

Block 1
Compound: CCN1/C(=C/C(C)=O)Sc2ccc(OC)cc21
Observed: enzyme activity
Action: inhibitor
Tested at: 0.5 µM
Baseline: control
It gave 108% for remaining activity (Aurora kinase A (AURKA, Homo sapiens, UniProt O14965)).
The remaining activity was 90.7% (Rho-associated protein kinase 2 (ROCK2, Homo sapiens, UniProt O75116)).
For G protein-coupled receptor kinase 5 (GRK5, Homo sapiens, UniProt P34947): remaining activity read 108%.
The remaining activity was 101% (Mitogen-activated protein kinase kinase kinase 2 (MAP3K2, Homo sapiens, UniProt Q9Y2U5)).
The remaining activity was 103% (Mitogen-activated protein kinase kinase kinase 8 (MAP3K8, Homo sapiens, UniProt P41279)).
For Calcium/calmodulin-dependent protein kinase type 1G (CAMK1G, Homo sapiens, UniProt Q96NX5): remaining activity read 101%.
The remaining activity was 99.7% (Serine/threonine-protein kinase N2 (PKN2, Homo sapiens, UniProt Q16513)).
Homeodomain-interacting protein kinase 3 (HIPK3, Homo sapiens, UniProt Q9H422) — remaining activity: 100%.
It gave 113% for remaining activity (Proto-oncogene tyrosine-protein kinase ROS (ROS1, Homo sapiens, UniProt P08922)).
It gave 78.1% for remaining activity (Serine/threonine-protein kinase D1 (PRKD1, Homo sapiens, UniProt Q15139)).
Cyclin-dependent kinase 2, with cyclin A (CDK2, Homo sapiens, UniProt P24941) — remaining activity: 89.7%.
The remaining activity was 101% (Myotonin-protein kinase (DMPK, Homo sapiens, UniProt Q09013)).
For Protein-tyrosine kinase 2-beta (PTK2B, Homo sapiens, UniProt Q14289): remaining activity read 97.8%.
Dual specificity tyrosine-phosphorylation-regulated kinase 4 (DYRK4, Homo sapiens, UniProt Q9NR20) — remaining activity: 82.3%.
The remaining activity was 89.7% (Casein kinase II subunit alpha' (CSNK2A2, Homo sapiens, UniProt P19784)).
It gave 99.1% for remaining activity (Epidermal growth factor receptor (EGFR, Homo sapiens, UniProt P00533)).
Cyclin-dependent kinase 7 (CDK7, Homo sapiens, UniProt P50613) — remaining activity: 94.8%.
For STE20-like serine/threonine-protein kinase (SLK, Homo sapiens, UniProt Q9H2G2): remaining activity read 86.8%.
The remaining activity was 91.9% (NT-3 growth factor receptor (NTRK3, Homo sapiens, UniProt Q16288)).
It gave 96.5% for remaining activity (Proto-oncogene tyrosine-protein kinase receptor Ret (RET, Homo sapiens, UniProt P07949)).
Mitogen-activated protein kinase 10 (MAPK10, Homo sapiens, UniProt P53779) — remaining activity: 102%.

Block 2
SMILES: COc1ccc(-c2c(Nc3ccccn3)[nH]c3c(C4=CCCCC4)c(-c4ccccc4)nn3c2=O)cc1
Method: LC-MS/MS
Refers to: S-adenosylmethionine
Host: human patients
Medium: plasma
It gave 20.8 ng/mL for “plasma SAM concentration” (50 mg QD, 1 h, median).
It gave 10.7 ng/mL for “plasma SAM concentration” (200 mg BID, 1 h, geometric mean).
For 200 mg BID, 6 h, median: “plasma SAM concentration” read 13.4 ng/mL.
400 mg QD, 4 h, geometric mean — “plasma SAM concentration”: 18 ng/mL.
The “plasma SAM concentration” was 17.7 ng/mL (100 mg QD, 2 h, geometric mean).

Block 3
SMILES: CC(C)CC(=O)N1CCc2nc(-c3ccc(Br)cc3)nc(N(C)Cc3ccccc3)c2C1
Observed: cell-free assay
Method: competition with immobilised ligand
Tested at: 0.1 µM
It gave 82% for remaining binding (Receptor tyrosine-protein kinase erbB-2 (ERBB2, Homo sapiens, UniProt P04626)).
The remaining binding was 100% (G protein-coupled receptor kinase 3 (GRK3, Homo sapiens, UniProt P35626)).
For Dual specificity mitogen-activated protein kinase kinase 7 (MAP2K7, Homo sapiens, UniProt O14733): remaining binding read 79%.
Calcium/calmodulin-dependent protein kinase type II subunit beta (CAMK2B, Homo sapiens, UniProt Q13554) — remaining binding: 100%.
It gave 90% for remaining binding (Serine/threonine-protein kinase ULK1 (ULK1, Homo sapiens, UniProt O75385)).
5'-AMP-activated protein kinase catalytic subunit alpha-2 (PRKAA2, Homo sapiens, UniProt P54646) — remaining binding: 100%.
Serine/threonine-protein kinase 16 (STK16, Homo sapiens, UniProt O75716) — remaining binding: 100%.
The remaining binding was 73% (Receptor tyrosine-protein kinase erbB-3 (ERBB3, Homo sapiens, UniProt P21860)).

Block 4
SMILES: CCOc1ccc(Nc2c3c(nc4ccccc24)CCC3)cc1
Organism: Leishmania donovani
Strain: DD8
Medium: promastigotes
Time: 72 h
It gave 9.58e+06 and 9.76e+06 for promastigote number (0.33 µM).
1.66 µM — promastigote number: 9.85e+06 and 9.76e+06.
The promastigote number was 9.55e+06 and 9.58e+06 (0.03 µM).

Block 5
Structure (SMILES): CN(C(=O)c1ccn2ncc(-c3ccc(C(N)=O)cc3)c2c1)c1ccc(C#N)cn1
Organism: Cryptosporidium parvum
Method: time-kill
Cells: HCT-8
Strain: nanoluciferase-expressing
Baseline: DMSO control
The luminescence remaining was 86.7% and 87.3% (0.02743 µM, 48 h).
0.00102 µM, 0 h — luminescence remaining: 103% and 91.2% and 91.4% and 97.4% and 90.1% and 98% and 90.3% and 99.4%.
It gave 91.2% and 90.3% and 98% and 91.4% and 99.4% and 103% and 90.1% and 97.4% for luminescence remaining (6.667 µM, 0 h).
For 6.667 µM, 8 h: luminescence remaining read 121% and 119%.

Single results of other studies
For `COc1cc(C(=O)OCCCN2CCCN(CCCOC(=O)c3cc(OC)c(OC)c(OC)c3)CC2)cc(OC)c1OC`, “paw withdrawal frequency” read 0.29 fraction of stimuli and 0.15 fraction of stimuli and 0.13 fraction of stimuli and 0.44 fraction of stimuli and 0.12 fraction of stimuli (von Frey test; mouse, STZ diabetic neuropathy; subcutaneous, 30 mg/kg, second of three doses, 3 h).

For quick reference, copied from above (block 4):
1.66 µM — promastigote number: 9.85e+06 and 9.76e+06.
It gave 9.58e+06 and 9.76e+06 for promastigote number (0.33 µM).
The promastigote number was 9.55e+06 and 9.58e+06 (0.03 µM).
